Measured values of several laboratories.
Each line is one published result; not all experiments were run side by side. Numbers after ± are the reported error.

SMILES	cell line	test	setting	how to read	quantity	value
CC1=CCC23OC2(C)CCC2C(C[N+](C)(C)C)C(=O)OC2C13.[I-] (centres unmarked)	RPMI-8226	cell growth or viability, SRB	8.3 µM		inhibition	91.5%
CC[C@H](C)[C@H]1C(=O)O[C@H](C(C)C)C(=O)N(C)[C@@H]([C@@H](C)CC)C(=O)O[C@H](C(C)C)C(=O)N(C)[C@@H]([C@@H](C)CC)C(=O)O[C@H](C(C)C)C(=O)N1C	E0771	CETSA, item: Hsp90β	20 µM, 1 h		thermal stabilization temperature	> 61 °C
CC12OOC(C)(OO1)C2CCC(=O)NCCCNc1ccnc2cc(Cl)ccc12 (centres unmarked)	MOLT-4	cell growth or viability, resazurin	10 µM, 48 h		inhibition	30.8%
C=CC(=O)Nc1cc(-c2nn(C3CCC(N4CCN(C(C)=O)CC4)CC3)c3ncnc(N)c23)ccc1Oc1ccccc1 (centres unmarked)	HCC2935	cell growth or viability			EC50	> 10 µM
O=C(O)CCC(NP(=O)(O)OCCC[C@@H](NC(=O)CCC(NC(=O)CCCCCNC(=O)c1ccc([18F])cc1)C(=O)O)C(=O)O)C(=O)O (some centres unmarked)	CWR22Rv1		1 h		internalized fraction	81.4%
O=C(O)c1ccc([PH]([Au][Cl])(c2ccccc2)c2ccccc2)cc1	HUVEC	tube formation	IC10, 16 h		tube length disruption	7%
CCCCCCCCCCCCCC(=O)NCC(=O)N[C@@H](CCCNC(=N)N)C(=O)N[C@@H](Cc1c[nH]c2ccccc12)C(=O)N[C@@H](CCCCN)C(=O)N[C@H](C(=O)N[C@@H](Cc1ccccc1)C(=O)N[C@@H](CCCCN)C(=O)N[C@@H](CCCCN)C(=O)N[C@H](C(=O)N[C@@H](CCC(=O)O)C(=O)N[C@@H](CCCCN)C(=O)N[C@H](C(=O)NCC(=O)N[C@@H](CCC(N)=O)C(=O)N[C@@H](CC(N)=O)C(=O)N[C@H](C(=O)N[C@@H](CCCNC(=N)N)C(=O)N[C@@H](CC(=O)O)C(=O)NCC(=O)N[C@H](C(=O)N[C@H](C(=O)N[C@@H](CCCCN)C(=O)N[C@@H](C)C(=O)NCC(=O)N1CCC[C@H]1C(=O)N[C@@H](C)C(=O)N[C@H](C(=O)N[C@@H](C)C(=O)N[C@H](C(=O)N[C@H](C(=O)NCC(=O)N[C@@H](CCC(N)=O)C(=O)N[C@@H](C)C(=O)N[C@@H](C)C(=O)N[C@H](C(=O)N[C@H](C(N)=O)[C@@H](C)CC)[C@@H](C)O)C(C)C)C(C)C)C(C)C)C(C)C)[C@@H](C)CC)[C@@H](C)CC)C(C)C)[C@@H](C)CC)[C@@H](C)CC	K562/MDR		3 µM, 16 h		LDH release	~20%
CNC(=O)c1cc(Oc2ccc(NC(=O)CCC(=O)OC3OC4OC5(C)CCC6C(C)CCC(C3C)C46OO5)cc2)ccn1 (centres unmarked)	Huh-7 and LO2	cell viability, MTT	72 h	reference: IC50 LO2 over IC50 Huh-7	selectivity ratio	4
CC/C=C\C/C=C\C/C=C\C/C=C\C/C=C\C/C=C\CCC(=O)Nc1ccn(C2OC(CO)C(O)C2(F)F)c(=O)n1 (centres unmarked)	SNB-75	NCI60 screen			CC50	> 100 µM
CC12CCC3(CCC(=O)NCCNc4ccnc5cc(Cl)ccc45)C(C)(OOC3(C)O1)O2	RPMI-8226	cell growth or viability, resazurin	10 µM, 48 h		inhibition	19.6%
N=C(N)NCCC[C@H](N)C(=O)N1CCC[C@H]1C(=O)N[C@@H](CCCCN)C(=O)N1CCC[C@H]1C(=O)N[C@@H](CCC(N)=O)C(=O)N[C@@H](CCC(N)=O)C(=O)N[C@@H](Cc1ccccc1)C(=O)N[C@@H](Cc1ccccc1)C(=O)NCC(N)=O	LAD2 human mast cells	degranulation, activator, item: β-hexosaminidase	30 min, 37 °C		EC50	18.5 µM
COC(=O)c1ccc(-n2cc(CCCN(CCNc3ccnc4cc(Cl)ccc34)C(=O)CCC(=O)OC3OC4OC5(C)CCC6C(C)CCC(C3C)C46OO5)nn2)cc1 (centres unmarked)	MOLT-4	cell growth or viability, resazurin	10 µM, 48 h		inhibition	33.5%
CCN(CC)CCOc1ccc(-c2nnn(Cc3ccc(OC)cc3)c2N)cc1	HEI-193	western blot, item: SOX2	concentration not given, 7 days		protein level	decreased
COc1ccc(/C=C/C(=O)CC(=O)/C=C/c2ccc(OC)c(OC)c2)cc1OC	LN-229	Western blot, item: p-mTOR, p-CDC2, BCL-2	concentration not given, 24 h		protein level	decreased
Cc1cc(CS(=O)(=O)c2ccccc2)cc(OCc2ccc(CN3CCC[C@@H]3CO)cc2)c1	U2OS	fluo-4	30 µM, with: GPN 300 µM		GPN-evoked Ca2+ release	94 ± 4%
Cc1cc(O)cc(-c2nc(Nc3cc(C(F)(F)F)cc(C(F)(F)F)c3)ncc2-c2ccnc(Cl)c2)c1	HT-29		10 µM, 72 h	reference: untreated cells	viability decrease	> 50%

SMILES	cell line	test	setting	how to read	quantity	value
CCCC[C@H](O)C[C@@H](C)C[C@H](NC(=O)[C@@H]1C[C@H](C)CN1C(=O)/C=C/[C@@H](C)CC)C(=O)N[C@H](C(=O)NC(C)(C)C(=O)N[C@@H](CC(C)C)C(=O)N[C@@H](CC(C)C)C(=O)NC(C)(C)C(=O)NC(C)(C)C(=O)NCCC(=O)N[C@@H](C)CNC)[C@H](O)C(C)C	SUM185PE	cell growth or viability, SRB	48 h		GI50	0.0021 µM
CC[C@H](C)[C@H](NC(C)=O)C(=O)N[C@@H](CC(N)=O)C(=O)N[C@@H](Cc1c[nH]c2ccccc12)C(=O)N[C@@H](Cc1c[nH]cn1)C(=O)N[C@@H](C)C(=O)N[C@H](C(=O)N[C@@H](C)C(=O)N[C@@H](Cc1c[nH]cn1)C(=O)N[C@@H](CCSC)C(=O)N[C@@H](C)C(=O)N[C@@H](CCCCN)C(=O)N[C@@H](CCCCN)C(=O)N[C@@H](CC(C)C)C(=O)N[C@@H](CC(C)C)C(N)=O)[C@@H](C)CC	human erythrocytes	haemolysis	with: Ni(II) 300 µM		Hill coefficient	1.8 ± 0.7
CCCN1CCNC1=[S+][Ag-3]([O][N+](=O)[O-])([P+](c1ccccc1)(c1ccccc1)c1ccccc1)[P+](c1ccccc1)(c1ccccc1)c1ccccc1	MG-63 osteosarcoma	MTT	25 µM		cell killing	≤ 75%
COC(=O)[C@H](CC(C)C)NC(=O)[C@@H]1CCCN1C(=O)[C@@H](NC(=O)[C@H](CCC(=O)C=[N+]=[N-])NC(=O)OCc1ccccc1)C(C)C	Q7 mouse striatal cells	MitoTracker staining	50 µM, 12 and 24 h		mitochondrial staining	increased
CC(=O)N[C@@H](CCCNC(=N)N)C(=O)N[C@@H](CCCNC(=N)N)C(=O)N[C@@H](CCCNC(=N)N)C(=O)N[C@@H](CCCNC(=N)N)C(=O)N[C@@H](CCCNC(=N)N)C(=O)N[C@@H](CCCNC(=N)N)C(=O)N[C@@H](CCCNC(=N)N)C(=O)N[C@@H](CCCNC(=N)N)C(=O)N[C@@H](CCCNC(=N)N)C(=O)N[C@@H](CCCNC(=N)N)C(=O)NCC(=O)N[C@@H](COP(=O)(O)O)C(=O)N1CCC[C@H]1C(=O)N[C@H](C(=O)N[C@@H](Cc1ccccc1)C(=O)O)[C@@H](C)O	HeLa	DNA damage, immunostaining	10 µM, 30 min, with: ionizing radiation 15 Gy		γH2AX-positive cells	81.5 ± 3.93%
CC1CCC2C(C)C(OC(=O)CCC(=O)N(CCCc3cn(-c4ccc([N+](=O)[O-])cc4)nn3)CCNc3ccnc4cc(Cl)ccc34)OC3OC4(C)CCC1C32OO4 (centres unmarked)	CCRF-CEM	cell growth or viability, resazurin	10 µM, 48 h		inhibition	52.3%
C[C@@H]1O[C@H]2O[C@@H]3C4(O)C(=O)c5cccc(O)c5C(=O)C4(O)O[C@]3(C)[C@]21O (some centres unmarked)	A549 and HFF	MTT		reference: CC50 HFF over EC50 A549	selectivity index	1.51
CC[C@@]12CC[C@@H]3N(C)c4ccccc4[C@@]34CCN(C[C@H]3O[C@H]31)[C@@H]24	BV-2	NO production	50 µM, 1 h, 24 h stimulation, with: LPS 800 ng/mL	reference: LPS control	inhibition	75.7 ± 1.9%
CSCC[C@H](NC(=O)[C@H](CC(C)C)NC(=O)CNC(=O)[C@H](Cc1ccccc1)NC(=O)[C@H](Cc1ccccc1)NC(=O)[C@H](CCC(N)=O)NC(=O)[C@H](CCC(N)=O)NC(=O)[C@@H]1CCCN1C(=O)[C@H](CCCCN)NC(=O)[C@@H]1CCCN1C(=O)[C@@H](N)CCCNC(=N)N)C(N)=O	rat mast cells	whole-cell patch-clamp capacitance	25 µM, intracellular, 200 µM EGTA		onset delay of degranulation	250 s
CNC(=O)c1cc(Oc2ccc(NC(=O)c3cc(-c4ccc(OC(=O)CCC(=O)OC5OC6OC7(C)CCC8C(C)CCC(C5C)C68OO7)cc4)ccn3)cc2)ccn1 (centres unmarked)	Huh-7 and LO2	cell viability, MTT	72 h	reference: IC50 LO2 over IC50 Huh-7	selectivity ratio	3.1
FC(F)(F)c1ccc2nc3c4cccnc4c4ncccc4c3nc2c1.[Cl-].[Cl-].[Ru+2].c1ccncc1.c1ccncc1.c1ccncc1.c1ccncc1	L-O2		5 µM, 24 h, with irradiation		viability	90%
CC(C)Cc1ccc(C(C)C(=O)OCC(O)COP(=O)([O-])OCC[N+](C)(C)C)cc1 (centres unmarked)	MCF-10A and MCF7	cell growth, SRB	72 h	reference: IC50 MCF-10A over MCF7	selectivity ratio	< 1
CC[C@H](C)[C@H](NC(C)=O)C(=O)N[C@@H](CC(N)=O)C(=O)N[C@@H](Cc1c[nH]c2ccccc12)C(=O)N[C@@H](Cc1c[nH]cn1)C(=O)NCC(=O)N[C@H](C(=O)N[C@@H](C)C(=O)N[C@@H](Cc1c[nH]cn1)C(=O)N[C@@H](CCSC)C(=O)N[C@@H](C)C(=O)N[C@@H](CCCCN)C(=O)N[C@@H](CCCCN)C(=O)N[C@@H](CC(C)C)C(=O)N[C@@H](CC(C)C)C(N)=O)[C@@H](C)CC	human erythrocytes		with: Ni(II) 300 µM	reference: without metal	haemolytic potency ratio	9 fold
C#CCCCN(CCNc1ccnc2cc(Cl)ccc12)C(=O)CCC(=O)O[C@@H]1O[C@@H]2O[C@@]3(C)CC[C@H]4[C@H](C)CCC([C@H]1C)[C@@]24OO3 (some centres unmarked)	RPMI-8226	cell growth or viability, resazurin	10 µM, 48 h		inhibition	35.8%
CC(C)CC(O)(CC(C)C)c1cn(C(=O)N2CCCC2)nn1	mouse T-cells	N-terminal labeled proteins, N-terminal enrichment proteomics, item: LARP4	1 nM, 6 h	reference: DMSO	SILAC ratio	4.42 ± 0.23
O=C(Nc1ccc(C(F)(F)F)cc1Cl)c1cc(Cl)ccc1O	C4-2B MDVR cells	ELISA	0.5 and 1.0 µM		cell death	increased
